Measurements of several laboratories.
Numbered parts are unrelated; each lists some results of a single study. Changes are numbered by the printed parent chain.

Block 1 — technique: RNA Bind-n-Seq; form: RNA; matrix: in vitro; concentration: 365 nM; baseline: no-protein control; direction: higher = stronger binding; measurement: RBNS enrichment (R)
Target: RNA binding protein fox-1 homolog 2, RRM domain, GST-SBP tag (RBFOX2, Homo sapiens, UniProt O43251-10, residues 100-194)
Setting: natural RNA segment, single round, ends assumed
Shared flanks, not repeated: GGGAGUUCUACAGUCCGACGAUC … UGGAAUUCUCGGGUGCCAA
Construct (chain): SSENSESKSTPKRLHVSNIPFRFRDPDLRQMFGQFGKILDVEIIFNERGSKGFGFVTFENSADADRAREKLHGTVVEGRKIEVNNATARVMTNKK
UUUUAGUGCUAAAAGGCUUUUAUAAAUUAUAAUAAGCCUCAGGAAGAAGCAAGCCUCUUACAUAUUAGGAAAAUACCUGAAAAGUUAGUUCAUUUGUCAGAUCCAGUUUU: 0.601
AGGAUUUUCCUUAGGACAGGUGUGACCUUCUGGUCCCUCUGUCCCAUUGCCCUCUCGUAUUCCAUUUAAAAAAGUCAUUCAUGAUCCUUUCCACCCGCUCUCUGUAUUUU: 0.576
UCCGCCCACCGACGCCAUGGGCACACUGCUCCCUCCUCCUCCUCCAGCUACUUUGUGUUGAACACAAUUGAUUCUCCAGGUGCUCAUGGUGCAGGAAAACAGGACAGACA: 0.843
GCCAGGCUGUGCUAGCAACACCCAAAGGUGGCCUGCGGGGAGCCAUCACCUAGGACUGACUCGGCAGUGUGCAGUGGUGCAUGCACUGUCUCAGCCAACCCGCUCCACUA: 0.593
CUGUAAGGUUUCAAAAGCACUGGUAGGCAUAGCAUAGAUGUUCCAGUUACACACUCAGUAAACACUGGUUAUCAGUCAUUGGAAAGGUUACCUGUGCAACCACCAGAUUC: 0.261

Block 2 — target: CCND3, cyclin fold, Cln2 fusion (human); technique: yeast growth competition, sequencing; matrix: yeast; setting: weak parent motif; baseline: not given; direction: higher = stronger binding; measurement: normalised enrichment score
Starting sequence: CDKN1A docking peptide (human); SKACRRLFGPVDS
C4L: 0.155
D12V: 0.274
G9Q: 0.287
R5S: -0.16
A3W: 0.109
C4P: 0.215
R6G: -0.221
V11C: 0.363

Block 3 — technique: DHFR PCA, deep sequencing; matrix: yeast; together with: (+)-ABA 17 µM; baseline: wild-type fitted maximum; direction: higher = stronger binding; measurement: relative binding score
Target: ABI1, truncated, D143A, DHFR fusion (Arabidopsis thaliana)
Setting: methotrexate growth selection, single substitutions
Starting sequence: PYL1, truncated, DHFR fusion (Arabidopsis thaliana); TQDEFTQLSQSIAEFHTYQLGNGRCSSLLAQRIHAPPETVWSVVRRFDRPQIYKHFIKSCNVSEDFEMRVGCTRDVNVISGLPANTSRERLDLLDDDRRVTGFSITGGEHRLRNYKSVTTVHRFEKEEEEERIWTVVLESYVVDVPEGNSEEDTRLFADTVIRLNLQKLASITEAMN
S26H: 79.9%
P37Q: 48.3%
N85V: 83.8%
T73R: 62.4%

Single results of other studies
PhoQ, residues 284 288 289 292 302 303 GASLAW  fold induction (PhoP, residues 12 14 15 18 19 SQCLL (Escherichia coli, UniProt P23836); Sort-seq, measured: YFP reporter; E. coli; PhoQ-PhoP variant library, together with: 10 µM Mg2+; baseline: high Mg2+ state, higher = stronger signaling): 14.5

Some of these lines once more (block 2):
D12V: 0.274
G9Q: 0.287
R5S: -0.16
